# Measurements from different studies.
# Lines come from different studies, so protocols differ.
Structure (SMILES),tested on,test,system,conditions,endpoint,value
C=CC(=O)Nc1cc(Nc2nccc(Nc3cc(Cl)c(F)cc3C(C)(C)O)n2)c(OC)cc1N1CC[C@@H](N(C)C)C1,,,human patients,"oral, 50 mg, treatment-emergent adverse events",patients with amylase increased,0%
C[C@]1(O)C[C@@](N)(c2ccc(-c3nc4n(c3-c3ccccc3)COc3ccncc3-4)cc2)C1,,,"human, advanced or metastatic solid tumours","once daily, dose escalation total, any grade",patients with Fatigue TEAE,22.2%
O=C1Nc2cc3[nH]nc(-c4ccncc4)c3cc2CN1Cc1ccccc1,,CTCAE v4.03,"human, relapsed or refractory advanced solid tumours","intravenous, 3.6 mg/kg, pooled schedules",patients with QTc prolongation,0%
Cc1cn([C@H]2O[C@@H](CO[P@@](=O)(N[C@@H](C)C(=O)OC(C)C)Oc3ccccc3)[C@H](O)[C@H]2F)c(=O)[nH]c1=O,,item: grade 1/2,human,25 mg,patients with creatine kinase elevation,0%
Cn1cncc1-c1c(F)cncc1NC(=O)c1c(N)nn2cc(F)cnc12,,,human patients,"oral, up to 40 mg once daily",patients grade ≥3 Platelet count decrease,0%
COc1ccc(-c2c(-c3ccc(C#N)c(F)c3)nc(N3CCC(N)CC3)n(C)c2=O)cc1F,,item: biliary tract infection,human patients,"oral, 60 mg, dose expansion",patients with serious TEAE,5%
COc1ncnn2ccc(-c3cnc4nc(C)n(Cc5nnc([C@@H](C)F)o5)c4c3)c12,,,human,"oral, dose not given, grade 5",patients with stomatitis,0%
CCc1nc(N)nc(N)c1-c1ccc(Cl)cc1,human coronavirus OC43,virus-induced cell killing,MRC-5,screen,maximum inhibition,26%
C[C@@H]1OC(=O)NN=C1c1ccc(-c2ccc(F)cc2)c(C(F)(F)F)c1,,"phase I trial, item: Cough all grades",human patients,5 mg loading then 0.25 mg daily,patients with adverse event,0%
c1ccc2c(CCNc3ccc(Nc4ccncc4)cc3)c[nH]c2c1,human coronavirus OC43,virus-induced cell killing,MRC-5,maximum over 10 doses,maximum inhibition,0%
CN(C)C(=O)c1cc2cnc(Nc3ccc(N4CCNCC4)cn3)nc2n1C1CCCC1,,item: pulmonary embolism,"human, HR+/HER2− advanced breast cancer","oral, dose not given, grade 3, CTCAE v4.03",patients with adverse event,1.5%
C=CCNc1c(O)cc2c(O)c1C[C@@H](C)C[C@H](OC)[C@H](O)[C@@H](C)/C=C(\C)[C@H](OC(N)=O)[C@@H](OC)/C=C\C=C(/C)C(=O)N2,,,human unresectable metastatic GIST or sarcoma,"intravenous, dose not given, treatment-emergent, all doses",patients with infusion site pain,26%

# Excerpt of the above:
Structure (SMILES),tested on,test,system,conditions,endpoint,value
O=C1Nc2cc3[nH]nc(-c4ccncc4)c3cc2CN1Cc1ccccc1,,CTCAE v4.03,"human, relapsed or refractory advanced solid tumours","intravenous, 3.6 mg/kg, pooled schedules",patients with QTc prolongation,0%
